Experimental data from different studies.
Lines come from different studies, so protocols differ. ± gives the spread as reported.

The EC50 of `CCCc1nc(N)[nH]c(=O)c1Br` is reported as greater than 100 µM (reovirus type 1; virus-induced cytopathicity; Vero).
`C[C@H]1CN(c2n[nH]c3nc(N[C@H]4CC[C@H](NS(=O)(=O)CCC(F)(F)F)CC4)ncc23)CCO1` gave an EC50 of 0.0067 ± 0.00022 µM (Leishmania donovani; promastigotes, LdBOB CRK12 single knockout).
For `Nc1nc(CC(O)c2ccc(Cl)cc2)c(Br)c(=O)[nH]1` (stereo not shown), the EC50 was greater than 100 µM (reovirus type 1; virus-induced cytopathicity; Vero).
For `CCCCCCn1nnc2c1CCN(c1ccccc1)C2`, the EC50 was greater than 100 µM (human adenovirus 2; viral replication; HEL).
With `Nc1ccn(C[C@@H](CO)OCP(=O)(O)O)c(=O)n1` the EC50 was 10 µM (human adenovirus 2; viral cytopathic effect; HEL).
The EC50 of `CCOC(=O)C1(Cc2ccccc2)CN(c2ccccc2)Cc2nnn(Cc3cc(OC)c(OC)c(OC)c3)c21` (stereo not shown) is reported as greater than 100 µM (human adenovirus 2; viral replication; HEL).
`CC(C)CC(=O)OC[C@H]1O[C@@](C#N)(c2ccc3c(N)ncnn23)[C@H](O)[C@@H]1O` gave an EC50 of 0.198 µM (human respiratory syncytial virus; viral replication; HEp-2; with: verapamil 100 µM).
With `NC(=O)c1ncn([C@@H]2O[C@H](CO)[C@@H](O)[C@H]2O)n1` the EC50 was 43 µM (West Nile virus; viral replication; BHK-21).
`CCOC(=O)C1(Cc2ccccc2)CN(c2ccccc2)Cc2nnn(Cc3c(F)cccc3Cl)c21` (stereo not shown) gave an EC50 of greater than 100 µM (human adenovirus 2; viral replication; HEL).
`CCCCCc1nc(N)[nH]c(=O)c1Br` gave an EC50 of greater than 100 µM (reovirus type 1; virus-induced cytopathicity; Vero).
For `CCOC(=O)C1(Cc2ccccc2)CN(c2ccccc2)Cc2nnn(Cc3ccccc3Cl)c21` (stereo not shown), the EC50 was greater than 100 µM (human adenovirus 2; viral replication; HEL).
With `CCCCc1nc(N)[nH]c(=O)c1Br` the EC50 was greater than 100 µM (reovirus type 1; virus-induced cytopathicity; Vero).
`COc1ccnc(C(=O)N[C@H]2COC(=O)[C@H](Cc3ccccc3)[C@@H](OC(=O)C(C)C)[C@H](C)OC2=O)c1OCOC(=O)C(C)C` gave an EC50 of greater than 0.522 µg/mL (Pseudokirchneriella subcapitata; growth rate; 72 h, static test).
`C#C[C@@]1(O)[C@H](O)[C@@H](CO)O[C@H]1n1ccc2c(N)ncnc21` gave an EC50 of 0.214 µM (dengue virus type 2; viral replication, Renilla luciferase reporter virus; Huh-7.5.1; 48 h).
The EC50 of `COCC(=O)N1CCC[C@H](C(=O)NCc2nc(-c3ccc(C#N)cc3)cs2)C1` is reported as 0.38 ± 0.13 µM (Plasmodium falciparum; Dd2 β3 R190S resistant).
With `CCOC(=O)C1(Cc2ccccc2)CN(c2ccccc2)Cc2nnn(Cc3ccc(Cl)c(Cl)c3)c21` (stereo not shown) the EC50 was greater than 100 µM (human adenovirus 2; viral replication; HEL).
For `NC(=O)c1ncn([C@@H]2O[C@H](CO)[C@@H](O)[C@H]2O)n1`, the EC50 was greater than 250 µM (reovirus type 1; viral replication; Vero).
With `CCC(C)n1ncn(-c2ccc(N3CCN(c4ccc(OCC5COC(Cn6cncn6)(c6ccc(Cl)cc6Cl)O5)cc4)CC3)cc2)c1=O` (stereo not shown) the EC50 was 0.43 ± 0.07 µM (enterovirus D68; viral replication, inhibitor; 72 h).
`CCOC(=O)C1(Cc2ccccc2)CN(c2ccccc2)Cc2nnn(Cc3ccco3)c21` (stereo not shown) gave an EC50 of greater than 100 µM (human adenovirus 2; viral replication; HEL).
With `O=C(N1CCC2(CC1)C[C@@H](CN1CCCCS1(=O)=O)CCO2)C1(c2ccccc2)CCCC1` the EC50 was greater than 32 µM (human respiratory syncytial virus; viral replication).
The EC50 of `CC(C)(O)Cc1nc(N)[nH]c(=O)c1Br` is reported as greater than 100 µM (reovirus type 1; virus-induced cytopathicity; Vero).
With `CCOC(=O)C1(Cc2ccccc2)CN(c2ccccc2)Cc2nnn(Cc3ccc(F)cc3)c21` (stereo not shown) the EC50 was greater than 100 µM (human adenovirus 2; viral replication; HEL).

For quick reference, copied from above:
The EC50 of `CCOC(=O)C1(Cc2ccccc2)CN(c2ccccc2)Cc2nnn(Cc3cc(OC)c(OC)c(OC)c3)c21` (stereo not shown) is reported as greater than 100 µM (human adenovirus 2; viral replication; HEL).
`CC(C)CC(=O)OC[C@H]1O[C@@](C#N)(c2ccc3c(N)ncnn23)[C@H](O)[C@@H]1O` gave an EC50 of 0.198 µM (human respiratory syncytial virus; viral replication; HEp-2; with: verapamil 100 µM).
With `NC(=O)c1ncn([C@@H]2O[C@H](CO)[C@@H](O)[C@H]2O)n1` the EC50 was 43 µM (West Nile virus; viral replication; BHK-21).
